Measurements of several laboratories.
Compare with care: the assays were run in different laboratories. ± marks the error that the study gave.

Compound | cell line | assay | conditions | IC50
C[C@H]1C(OCCCCCCCCCCCC[P+](c2ccccc2)(c2ccccc2)c2ccccc2)O[C@@H]2O[C@@]3(C)CCC4[C@H](C)CCC1[C@]42OO3 (some centres unmarked) | HUVEC | cell viability, MTT | 72 h | 0.0761 ± 0.0073 µM
CCC(C)C1OC(=O)C(NC(=O)c2cccc(NC=O)c2O)C(C)OC(=O)C(C(C)CC)OC(=O)C(C)(C)C(=O)C(Cc2ccccc2)OC1=O (centres unmarked) | HCT-8/T taxol-resistant | cell viability, CCK-8 | 72 h | 9.69 ± 0.047 µM
CCN1CC2(COC)CCC(OC)C34C5CC6C(OC)CC(O)(C(CC23)C14)C5C6OC(=O)c1ccccc1 (centres unmarked) | HBE | cell growth or viability, MTT | – | 44.5 µM
COc1c(Oc2c(O)c(OC)c(OC)c3c2ccc2cc(O)ccc23)cc2c(c1OC)-c1ccc(O)cc1CC2 | human Fibroblast | cell growth or viability, CCK-8 | 24 h | 35 µM
CNC(=O)c1cc(Oc2ccc(NC(=O)CCC(=O)OC3OC4OC5(C)CCC6C(C)CCC(C3C)C46OO5)cc2)ccn1 (centres unmarked) | L02 | cell growth or viability, MTT | 72 h | 50.8 µM
COc1ccc(/C=C/C(=O)CC(=O)/C=C/c2ccc(OC)c(OC)c2)cc1OC | human Astrocyte | cell growth or viability, MTS | 24 h | 28.3 µM
C[C@H]1C(OCCCC[P+](c2ccccc2)(c2ccccc2)c2ccccc2)O[C@@H]2O[C@@]3(C)CCC4[C@H](C)CCC1[C@]42OO3 (some centres unmarked) | HUVEC | cell viability, MTT | 72 h | 0.495 ± 0.0387 µM
CCN1CC2(COC)CCC(OC)C34C5CC6C(OC)CC(O)(C5C6OC(=O)c5ccccc5)C(C(OC)C23)C14 (centres unmarked) | NCI-H460 | cell growth or viability, MTT | – | 15.7 µM
CC(C)[C@@H]1NC(=O)[C@H](C)OC(=O)[C@@H](C(C)C)NC(=O)[C@@H](C(C)C)OC(=O)[C@H](C(C)C)NC(=O)[C@H](C)OC(=O)[C@@H](C(C)C)NC(=O)[C@@H](C(C)C)OC(=O)[C@H](C(C)C)NC(=O)[C@H](C)OC(=O)[C@@H](C(C)C)NC(=O)[C@H](C)OC1=O | human Astrocyte | cell growth or viability | – | 3.5 µM
CC(=O)C(NC(=O)c1ccccc1-c1ccc(C(F)(F)F)cc1)c1cccc(C(F)(F)F)c1 (centres unmarked) | KHYG-1 with Ba/F3-MICA cells | NKG2D-mediated cell killing, inhibitor | 6 h | > 40 µM
C1CCN(C2CCNCC2)CC1.CCCC(CCC)C(=O)[O][Pt]([OH])([Cl])[Cl].CCCCN | A498 | cell growth | 72 h | 8.64 ± 0.95 µM
CC[C@H](C)[C@H](NC(=O)[C@H](CCCNC(=N)N)NC(=O)[C@H](CCCNC(=N)N)NC(=O)[C@H](CCCNC(=N)N)NC(=O)[C@@H](NC(=O)[C@@H](NC(=O)[C@H](C)NC(=O)[C@H](CCCNC(=N)N)NC(=O)[C@H](CCCNC(=N)N)NC(=O)[C@H](CCCNC(=N)N)NC(=O)[C@@H]1CCCN1C(=O)[C@@H](N)CCCNC(=N)N)[C@@H](C)O)[C@@H](C)O)C(=O)N[C@H](C(=O)N[C@H](C(=O)NCC(=O)N[C@H](C(=O)N[C@@H](CCCNC(=N)N)C(=O)N[C@@H](CCCNC(=N)N)C(=O)N[C@@H](CCCNC(=N)N)C(=O)N[C@@H](CCCNC(=N)N)C(N)=O)[C@@H](C)O)[C@@H](C)O)[C@@H](C)O | BT-474 | cell viability, CellTiter-Blue | 24 h, serum-free medium | 92.8 ± 1.1 µM
O=C1CC2(C1)C(=O)[O][Pt]1([Cl])([O]C(=O)C(Cl)Cl)([NH][C@@H]3CCCC[C@H]3[NH]1)[O]C2=O | NCI-H460 | cell growth or viability, MTT | – | 1.94 µM
CCOC12C(O)C(OC)C3(O)CC(C1C3OC(=O)c1ccccc1)C13C(OC)CC(O)C4(COC)CN(CC)C1C2C(OC)C43 (centres unmarked) | HBE | cell growth or viability, MTT | – | 31.4 µM
CN(C)C(=O)[C@@H](NC(=O)c1cnccc1-c1ccc(C(F)(F)F)cc1)c1cc(Cl)cc(C(F)(F)F)c1 | KHYG-1 with Ba/F3-MICA cells | NKG2D-mediated cell killing, inhibitor | 6 h | 0.2 ± 0.1 µM
COCC12CCC(OC)C34C5CC6(O)C(OC)C(O)C(O)(C5C6OC(=O)c5ccccc5)C(C(OC)C13)C4N(C)C2 (centres unmarked) | NCI-H460 | cell growth or viability, MTT | – | 21.8 µM
[Cl][Ag].[Se]=c1n(C2CCCCC2)ccn1C1CCCCC1 | LoVo | cell growth or viability, MTT | 72 h | 4.7 µM
OC[C@H]1[C@@H](O)[C@@H](O)CN1Cc1ccc(I)cc1 | CEM-DNR daunorubicin resistant | MTS | 72 h | 87 ± 11 µM
O=C(Cc1ccc2ccccc2c1)N[C@H](Cc1ccccc1)C(=O)N[C@H](Cc1ccccc1)C(=O)N[C@H](Cc1ccc(O)cc1)C(=O)N[C@H](Cc1ccc(O)cc1)C(=O)O | T98G | cell growth or viability, MTT | – | > 500 µg/mL
Cc1ccnc(-c2cc(C)ccn2)c1.[C-]#[O+].[C-]#[O+].[C-]#[O+].[Re+] | H460 | cell viability | – | 14 ± 1 µM
COc1cc(/C=C(\C#N)C(=O)Nc2nnc(C(F)(F)F)s2)ccc1OC(=O)N1CCN(C(=O)CCCC(=O)NCCCC[C@@H]2NC(=O)[C@@H](Cc3ccc(O)cc3)NC(=O)[C@H](CC(=O)O)NC(=O)CNC(=O)[C@H](CCCNC(=N)N)NC2=O)CC1 | MRC5 | cell growth or viability, MTT | – | > 100 µM
CNC(=O)c1cc(Oc2ccc(NC(=O)c3ccc(-c4cccc(COC(=O)CCC(=O)OC5OC6OC7(C)CCC8C(C)CCC(C5C)C68OO7)c4)cn3)cc2)ccn1 (centres unmarked) | L02 | cell growth or viability, MTT | 72 h | > 100 µM

Compound | cell line | assay | conditions | IC50
C[C@H]1C(OCCCCCCCCCC[P+](c2ccccc2)(c2ccccc2)c2ccccc2)O[C@@H]2O[C@@]3(C)CCC4[C@H](C)CCC1[C@]42OO3 (some centres unmarked) | J82 | cell growth or viability, MTT | 72 h | 0.0868 µM
Cc1cc(C)c(-n2c[n+](-c3c(C)cc(C)cc3C)c3c2-c2cccc4cccc-3c24)c(C)c1.[Cl][Pd-]([Cl])[CH2]C=Cc1ccccc1 | 2008 | cell growth, MTT | 72 h | 4 ± 1 µM
O=C1N[C@H]2[C@H](CS[C@H]2CCCCC(=O)OCc2ccnc(-c3cc(COC(=O)CCCC[C@@H]4SC[C@@H]5NC(=O)N[C@@H]54)ccn3)c2)N1.O=S(=O)([O-])C(F)(F)F.[Ru+2].c1cc[cH-]c1.c1ccc(P(c2ccccc2)c2ccccc2)cc1 | NIH3T3 | cell growth or viability, MTT | 48 h | 7 µM
Cc1cc(Nc2nc(C[C@@]3(C(=O)O)CCN(Cc4cccc(Cl)c4F)[C@H](C)C3)cc(C)c2F)[nH]n1 | NCI-H209 | cell proliferation | 5 days | 0.406 µM
CC(C)C[C@H](NC(=O)[C@@H](CCCNC(=N)N)NC(=O)[C@H](Cc1c[nH]cn1)NC(=O)[C@H](CO)NC(=O)[C@H](Cc1c[nH]c2ccccc12)NC(=O)[C@H](Cc1c[nH]cn1)NC(=O)[C@@H]1CCC(=O)N1)C(=O)N[C@@H](CCCNC(=N)N)C(=O)N1CCC[C@H]1C(=O)NCC(N)=O | WPE-1-NB26-3 | cell growth, inhibitor, sulforhodamine B staining | four days | 0.0209 ± 0.0118 µM
CC(C)C12OC1C1OC13C1(C)CCC4=C(COC4=O)C1CC1OC13C2OC(=O)CCCOC1OC(CO)C(O)C(O)C1O (centres unmarked) | DLD-1 GLUT1 knockout | cell growth | 1% oxygen hypoxia | 2.5 µM
CCN1CC2(COC)CCC(O)C34C5CC6C(OC)CC(O)(C(CC23)C14)C5C6O (centres unmarked) | NCI-H460 | cell growth or viability, MTT | – | 12.2 µM
CC(C)[C@H](NC(=O)[C@H](C(C)C)N(C)C)C(=O)N(C)[C@H](C(=O)N1CCC[C@H]1C(=O)N1CCC[C@H]1C(=O)O)C(C)C | CA46 | cell growth or viability | 48 h | 3 µM
C=C(CC(O)C(=O)O)C(=O)O (racemic) | K562 parental | cell growth | 72 h | 40 µM
Cc1cc(C)n(C(C(=O)OC(C)C)n2nc(C)cc2C)n1.F[P-](F)(F)(F)(F)F.[Cu+].c1ccc(P(c2ccccc2)c2ccccc2)cc1 | LoVo | cell growth or viability, MTT | 72 h | 6.5 µM
CN(C)C(=O)[C@H](NC(=O)c1ccccc1-c1ccc(C(F)(F)F)cc1)c1cccc(C(F)(F)F)c1 | KHYG-1 with Ba/F3-MICA cells | NKG2D-mediated cell killing, inhibitor | 6 h | > 40 µM
COC(=O)CC[C@@H](NC(=O)[C@@H](Cc1ccc(OP(=O)(O)O)cc1)NC(=O)[C@@H](CC(C)C)NC(=O)[C@@H](Cc1ccccc1)NC(=O)[C@@H](Cc1ccccc1)NC(=O)Cc1ccc2ccccc2c1)C(=O)OC | OVSAHO | cell growth or viability | – | < 12.5 µM
Cc1cc(C)c(N2CCN(c3c(C)cc(C)cc3C)C2=[Se])c(C)c1.[Cl][Ag] | LoVo | cell growth or viability, MTT | 72 h | 3.2 µM
C=C1C2CC3(C1O)C1CC4C5(C)CCC(O)C4(C1N(CC)C5)C3CC2O (centres unmarked) | NCI-H460 | cell growth or viability, MTT | – | 20.9 µM
O=C(Nc1nc2c(ncn2C2OC(COP(=O)(O)O)C(O)C2O)c(=O)[nH]1)c1ccccc1 (centres unmarked) | Vero | cell growth or viability | – | > 100 µM
C[C@H]1C(OCCCCCCCCC[P+](c2ccccc2)(c2ccccc2)c2ccccc2)O[C@@H]2O[C@@]3(C)CCC4[C@H](C)CCC1[C@]42OO3 (some centres unmarked) | HUVEC | cell viability, MTT | 72 h | 0.258 ± 0.0237 µM
CNC(=O)c1cc(Oc2ccc(NC(=O)c3ccc(-c4ccc(COC(=O)CCC(=O)OC5OC6OC7(C)CCC8C(C)CCC(C5C)C68OO7)cc4)cn3)cc2)ccn1 (centres unmarked) | L02 | cell growth or viability, MTT | 72 h | > 100 µM
O=C(c1ccccc1O)c1[nH]c(Cl)c(Cl)c1-n1c(C(=O)c2ccccc2O)cc(Cl)c1Cl | MRC5 | cell growth or viability, resazurin | 24 h | 1.7 µg/mL
CCN1CC2(COC)CCC(OC)C34C5CC6C(OC)CC(O)(C(CC23)C14)C5C6OC(C)=O (centres unmarked) | HBE | cell growth or viability, MTT | – | 27.7 µM
F[P-](F)(F)(F)(F)F.OCP(CO)CO.OCP(CO)CO.OCP(CO)CO.OCP(CO)CO.[Cu+] | MRC5 | cell growth or viability, MTT | 72 h | 32.7 µM
O=C(C[P+]([Au-][Cl])(c1ccccc1)c1ccccc1)[O][Ti+2][O]C(=O)C[P+]([Au-][Cl])(c1ccccc1)c1ccccc1.c1cc[cH-]c1.c1cc[cH-]c1 | A498 | cell viability, XTT | 24 h | 8.7 µM
CC1=CC(C)=[N+]2C1=Cc1ccc(CCC(=O)NCC3C[NH][Pt]([Cl])([Cl])[NH]3)n1[B-]2(F)F (centres unmarked) | KB-3-1 | cell viability, CellTiter-Glo | 72 h, DMSO solvent | 392 ± 35.2 µM
